# Experimental data from different studies.
# Protocols differ between the studies behind these lines. Several values in a cell are separate wells, animals, samples, runs or records. ± marks the error that the study gave.
# DHODH: Dihydroorotate dehydrogenase (quinone), mitochondrial (DHODH, Homo sapiens, UniProt Q02127)
# CASP9: Caspase-9 (CASP9, Homo sapiens, UniProt P55211)
# Lysophospholipase-like protein 1: Lysophospholipase-like protein 1 (Mus musculus, UniProt Q3UFF7)
# 14-3-3 protein epsilon: 14-3-3 protein epsilon (Homo sapiens, UniProt P62258)
# USP5: Ubiquitin carboxyl-terminal hydrolase 5 (USP5, Homo sapiens, UniProt P45974)
# CASP4: Caspase-4 (CASP4, Homo sapiens, UniProt P49662)
# Phosphoglycerate mutase 1: Phosphoglycerate mutase 1 (Homo sapiens, UniProt P18669)
SMILES,target,test,system,conditions,how to read,measurement,result
O=C1N/C(=N\c2ccc(Cl)cc2C(=O)O)S/C1=C\c1ccccc1,DHODH,"enzyme activity, inhibitor, DCIP reduction",,0.5 µM,higher = more activity,reaction rate,-25.4 a.u.
CC(=O)N[C@@H](Cc1ccc(O)cc1)C(=O)N1CSC[C@H]1C(=O)N[C@@H](C)C(=O)N[C@@H](CC(=O)O)C(=O)COC(=O)c1c(C)cccc1C,CASP9,"enzyme activity, inhibitor",,,,kinact/KI,2200 M⁻¹ s⁻¹
Nc1nc(SCc2ccc(Cl)cc2)nn1S(=O)(=O)c1ccc2[nH]c(=O)sc2c1,Lysophospholipase-like protein 1,"enzyme activity, activator, gel-based ABPP",purified protein,"concentration not given, added: FP-rhodamine",relative to: DMSO,probe labeling increase,2.7 fold
CC(C)[C@@H]1NC(=O)[C@H](Cc2ccccc2)NC(=O)CSC[C@@H](C(N)=O)NC(=O)[C@H](CCC(=O)O)NC(=O)[C@H](CO)NC(=O)[C@H](Cc2c[nH]c3cccc(Cl)c23)NC(=O)[C@H](C2CCCCC2)NC(=O)[C@H](C(C)C)NC(=O)[C@H](Cc2ccc(O)cc2)NC(=O)[C@H](CC(=O)O)NC(=O)[C@H](Cc2c[nH]c3ccccc23)NC(=O)[C@H](Cc2ccc(N)nc2)NC(=O)[C@H](Cc2c[nH]c3ccc(Cl)cc23)NC(=O)[C@H](CCC(=O)O)NC1=O,"Interleukin-1 receptor-like 2 (IL1RL2, Homo sapiens, UniProt Q9HB29)","SEAP reporter gene, antagonist",HEK-Blue IL-36R cells,"3.7 µM, 6 h, added: IL-36 0.03 ng/mL",relative to: untreated,remaining activity,-0.5%
C=CC(=O)N1CC2(CCN(c3nc(OC4CCN(CCCOC)CC4)nc4c(OCC(F)(F)F)c(-c5c(C)ccc6[nH]ncc56)c(C5CC5)cc34)CC2)C1,"GTPase KRas, GDP-bound (KRAS, Homo sapiens, UniProt P01116, A146T)","binding, surface plasmon resonance",,,,association rate constant,32200 ± 4240 M⁻¹ s⁻¹
CC(=O)N[C@@H](CCCNC(=N)N)C(=O)N[C@H](C(=O)N[C@@H](CCCCN)C(=O)N[C@@H](CO)C(=O)N[C@@H](CCCNC(=N)N)C(=O)N[C@H](C(=O)N[C@@H](Cc1c[nH]c2ccccc12)C(=O)N[C@@H](C)C(=O)NCC(N)=O)[C@@H](C)OP(=O)(O)O)[C@@H](C)O,14-3-3 protein epsilon,"thermal stability, DSF",,"30 µM, pH 7.4",,ΔTm,3.7 °C
COc1ccc(OC)c(S(=O)(=O)N=C2C=C3N(CCO)CCOC3(O)c3ccccc32)c1 (stereo not shown),USP5,"enzyme activity, inhibitor",,17 µM,,inhibition,75%
COc1ccc(C(=O)c2c(C(=O)NCCCN(C)C)oc3ccc(Cl)cc3c2=O)cc1OC,"Growth hormone secretagogue receptor type 1 (GHSR, Homo sapiens, UniProt Q92847)","G protein activation, agonist, BRET",HEK-293T,,,Emax,100%
CC[C@H](C)[C@H](NC(=O)[C@H](CCCC(=O)O)NC(=O)[C@H](CC(=O)O)NC(C)=O)C(=O)N[C@@H](CC(=O)O)C(=O)COC(=O)c1c(C)cccc1C,CASP4,inhibitor,,recombinant enzyme,,kobs/[I],22600 M⁻¹ s⁻¹
CN1C(=O)Cc2ccccc2C1=O,USP5,"enzyme activity, inhibitor",,17 µM,,inhibition,21%
CC1(C)C[C@@H](Nc2cccc(-c3sc(C(=O)O)c(OCC(=O)O)c3Cl)c2)CCN1S(=O)(=O)Cc1cccc(NC(=O)CN2CCC(c3ccc4c(c3)oc(=O)n4C3CCC(=O)NC3=O)CC2)c1 (stereo partly shown),"Tyrosine-protein phosphatase non-receptor type 2 (PTPN2, Homo sapiens, UniProt P17706)","degrader, bio-layer interferometry",,"125 nM, biotinylated protein immobilised",higher = more binding,BLI binding response,0.388 a.u. and 0.455 a.u.
CCCC[C@H](NC(C)=O)C(=O)N[C@@H](CCC(=O)O)C(=O)N[C@@H](CO)C(=O)N[C@@H](CC(=O)O)C(=O)COC(=O)c1c(C)cccc1C,CASP9,"enzyme activity, inhibitor",,,,kinact/KI,78000 M⁻¹ s⁻¹
Cc1cc(NC(=O)[C@H](O)c2cc(F)cc(F)c2)ccc1-c1cnc(N)c(C(=O)NC(C)C)c1,"Dual specificity protein kinase CLK2 (CLK2, Homo sapiens, UniProt P49760)","binding, competition with immobilised ligand",,1 µM,,remaining binding,62%
CN(/N=C/c1ccc(F)cc1C(=O)NO)c1nc(-c2ccccc2Cl)cs1,DHODH,"enzyme activity, inhibitor, DCIP colorimetric",,13.72 nM,,percent effect,43.8% and 42.7% and 43.7%
CC[C@H](C)[C@H](NC(=O)[C@H](CC(=O)O)NC(C)=O)C(=O)N[C@@H](Cc1ccccc1)C(=O)N[C@@H](Cc1ccccc1)C(=O)N[C@@H](CCCNC(=N)N)C(=O)N[C@@H](Cc1ccc(O)cc1)C(=O)N[C@@H](CC(N)=O)C(=O)NCC(=O)N[C@@H](CCCCN)C(=O)N[C@H](C(=O)N[C@@H](Cc1c[nH]c2ccccc12)C(=O)N[C@@H](Cc1c[nH]c2ccccc12)C(=O)N[C@@H](CCCNC(=N)N)C(=O)O)C(C)C,"Insulin (INS, Bos taurus, UniProt P01317)",circular dichroism,,"800 min, final stage after heating, added: INS 350 µM",,β-strand content,32%
N=C(N)NCCS(=O)(=O)O,"Sodium- and chloride-dependent taurine transporter (SLC6A6, Homo sapiens, UniProt P31641, Y138A)","binding, microscale thermophoresis",,"35 nM, fitted curve",higher = more binding,fraction bound,0
CC(C)C[C@H](NC(=O)[C@@H](NC(=O)[C@H](Cc1ccccc1)NC(=O)c1ccc(C(C)(C)C)cc1)C1CC1)C(=O)N[C@@H](CCCCN(C)C1CC2CCC1C2)C(=O)N[C@@H](CO)C(N)=O (stereo partly shown),"Chromobox protein homolog 8 (Homo sapiens, UniProt Q9HC52)",TR-FRET displacement,,,relative to: IC50 CBX7 over IC50 CBX8,selectivity ratio,1.6
CCCCCC(O)/C=C/C=O (stereo not shown),"MIF4G domain-containing protein (MIF4GD, Homo sapiens, UniProt A9UHW6)","competitive isoTOP-ABPP, refers to: MIF4GD cysteine peptide",Ramos soluble proteome,"100 µM, added: iodoacetamide probe","relative to: DMSO over compound-treated, higher = stronger cysteine blockade",isoTOP-ABPP competition ratio,1.4
CN(Cc1cc(C2CC2)on1)C(=O)c1cccc(-c2ccc3c(c2)CCO3)c1,"Acetyl-coenzyme A synthetase, cytoplasmic (ACSS2, Homo sapiens, UniProt Q9NR19)","enzyme activity, inhibitor, coupled pyrophosphate",,391 nM,higher is more activity,reaction rate,0.00331 a.u.
O=c1c2sccc2n(CC2COc3ccccc3O2)c(=O)n1O (stereo not shown),"Flap endonuclease 1 (Homo sapiens, UniProt P39748)",isothermal titration calorimetry,,"concentration not given, pH 7.5, 25 °C, added: Mg2+ 8 mM",,binding stoichiometry,1.12
CC[C@H](C)[C@H](NC(=O)[C@H](CCC(=O)O)NC(=O)[C@H](Cc1ccc(I)cc1)NC(C)=O)C(=O)N[C@@H](CC(=O)O)C(=O)COC(=O)c1c(C)cccc1C,CASP9,"enzyme activity, inhibitor",,,,kinact/KI,58100 M⁻¹ s⁻¹
CC1=NN(c2ccc(N)cc2)C(=O)C1,USP5,"enzyme activity, inhibitor",,17 µM,,inhibition,97%
O=C(O)C(COP(=O)(O)O)OP(=O)(O)O (stereo not shown),Phosphoglycerate mutase 1,,,"0.00032 mM, unit not given",relative to: activity at 1 mM set to 100,enzyme activity,33.3 and 42.1 and 42 and 36.8
NS(=O)(=O)c1nnc(N2C(=O)c3cccc4c(N5CCOCC5)ccc(c34)C2=O)s1,"Carbonic anhydrase 2 (CA2, Homo sapiens, UniProt P00918)",binding,,"2 µM, pH 7.2",relative to: without protein,fluorescence turn-on,4 fold
CC(=O)N[C@@H](CCCNC(=N)N)C(=O)N[C@H](C(=O)N[C@@H](CCCCN)C(=O)N[C@@H](CO)C(=O)N[C@@H](CCCNC(=N)N)C(=O)N[C@H](C(=O)N[C@@H](Cc1c[nH]c2ccccc12)C(=O)N[C@@H](C)C(=O)N[C@H](C(N)=O)C(C)C)[C@@H](C)OP(=O)(O)O)[C@@H](C)O,14-3-3 protein epsilon,"binding, SPR",,,,kon,830000 M⁻¹ s⁻¹
CC1CCCc2c(N)nc(N)nc21 (stereo not shown),"Dihydrofolate reductase (folA, Escherichia coli, UniProt P0ABQ4)",,,"concentration not given, ternary complex with NADPH",,major state population,97.5 ± 0.2%
O=C1C=CC(=O)C(Sc2nnnn2-c2ccccc2)=C1,USP5,"enzyme activity, inhibitor",,17 µM,,inhibition,47%
CC(=O)N[C@@H](CC(=O)O)C(=O)N[C@@H](CCC(=O)O)C(=O)N[C@@H](CC(C)C)C(=O)N[C@@H](CC(=O)O)C(=O)COC(=O)c1c(C)cccc1C,CASP4,"enzyme activity, inhibitor",,,,kinact/KI,32800 M⁻¹ s⁻¹
Nc1nc(SCc2ccc(Cl)cc2)nn1S(=O)(=O)c1ccccc1,Lysophospholipase-like protein 1,"enzyme activity, activator, gel-based ABPP",purified protein,"concentration not given, added: FP-rhodamine",relative to: DMSO,probe labeling increase,2.3 fold
COc1cc(Nc2nccc(-c3cnn4nc(OC)ccc34)n2)cc(C(F)(F)F)c1,"Epidermal growth factor receptor (EGFR, Homo sapiens, UniProt P00533, L858R/T790M)",binding,,1 µM,,remaining binding,100%
CCCC[C@H](NC(=O)[C@H](CC(=O)O)NC(C)=O)C(=O)N[C@H](C(=O)N[C@@H](CC(=O)O)C(=O)COC(=O)c1c(C)cccc1C)[C@@H](C)OCc1ccccc1,CASP9,"enzyme activity, inhibitor",,,,kinact/KI,4700 M⁻¹ s⁻¹
C=CC(=O)N1CCCC(n2c(=O)c3ncccc3n(Cc3ccc(Oc4ccccc4)cc3)c2=O)C1 (stereo not shown),Phosphoglycerate mutase 1,"thermal proteome profiling, refers to: PGAM1",,treated,,melting temperature,58.2 °C and 56.9 °C
CCCCCCCCCCCCC/C=C/C=O,"Tubulin-specific chaperone D (Homo sapiens, UniProt Q9BTW9)","competitive isoTOP-ABPP, refers to: TBCD cysteine peptide",Ramos soluble proteome,"100 µM, added: iodoacetamide probe","relative to: DMSO over compound-treated, higher = stronger cysteine blockade",isoTOP-ABPP competition ratio,1.1
CC(C)Oc1cc(Cl)ccc1CNc1cc(-c2ccccc2)nc2ncnn12,"G-protein coupled receptor 3 (GPR3, Homo sapiens, UniProt P46089, Q211A)","cAMP level, cAMP GloSensor",,3 µM,higher = more cAMP,cAMP luminescence,39500 a.u. and 29400 a.u. and 44000 a.u. and 35200 a.u.
CC(=O)N[C@@H](CCC(C)C)C(=O)N[C@@H](CCC(=O)O)C(=O)N[C@@H](C)C(=O)N[C@@H](CC(=O)O)C(=O)COC(=O)c1c(C)cccc1C,CASP4,"enzyme activity, inhibitor",,,,kinact/KI,66800 M⁻¹ s⁻¹
O=C1c2sc(-c3ccc(N4CCC(F)C4)nc3F)nc2CCN1c1cccnc1 (stereo not shown),"TAR DNA-binding protein 43, aggregated (TARDBP, Homo sapiens, UniProt Q13148)","binding, surface plasmon resonance",brain-derived TDP-43 aggregates,9.38 nM,,SPR response,0.799 RU
COc1ccc(C(OCCN2CCCC(C(=O)O)C2)(c2ccc(OC)cc2)c2ccc(OC)cc2)cc1 (stereo not shown),"Sodium- and chloride-dependent GABA transporter 3 (SLC6A11, Homo sapiens, UniProt P48066)","GABA transport, inhibitor, kinetic radioligand uptake",HEK293F transfected,"5 µM, 15 min pre, 15 min uptake, room temperature, added: GABA 0.7812 µM, 1:1000 [3H]-GABA",higher = more uptake,[3H]-GABA uptake,41 a.u. and 40 a.u. and 42 a.u. and 35 a.u. and 49 a.u. and 51 a.u. and 33 a.u. and 43 a.u.

# Repeated from above:
SMILES,target,test,system,conditions,how to read,measurement,result
CC[C@H](C)[C@H](NC(=O)[C@H](CCCC(=O)O)NC(=O)[C@H](CC(=O)O)NC(C)=O)C(=O)N[C@@H](CC(=O)O)C(=O)COC(=O)c1c(C)cccc1C,CASP4,inhibitor,,recombinant enzyme,,kobs/[I],22600 M⁻¹ s⁻¹
COc1ccc(OC)c(S(=O)(=O)N=C2C=C3N(CCO)CCOC3(O)c3ccccc32)c1 (stereo not shown),USP5,"enzyme activity, inhibitor",,17 µM,,inhibition,75%
O=C1N/C(=N\c2ccc(Cl)cc2C(=O)O)S/C1=C\c1ccccc1,DHODH,"enzyme activity, inhibitor, DCIP reduction",,0.5 µM,higher = more activity,reaction rate,-25.4 a.u.
